# Assay results collected from several papers.
# Each line is one published result; not all experiments were run side by side. ± marks the error that the study gave.
# Medium: plasma
Structure (SMILES),system,setting,AUC(0-inf) [ng·h/mL]
CC(C)(Sc1ccncc1-c1ccc(C#N)c2ccccc12)C(=O)OC1OC(C(=O)O)C(O)C(O)C1O (centres unmarked),,"oral, 15 mg, moderate renal impairment, fasted",727
NC(=O)/C=C/c1cccc(S(=O)(=O)Nc2ccccc2)c1,patients with severe liver dysfunction,"intravenous, 400 mg/m^2 belinostat, single 30 min infusion, cycle 1 day -7, mean",21600
Cc1ccccc1-c1cc(N2CC[N+](C)([O-])CC2)ncc1N(C)C(=O)C(C)(C)c1cc(C(F)(F)F)cc(C(F)(F)F)c1,healthy volunteers,"oral, dose not given, netupitant-palonosetron, standard dissolution capsule",1710
O=C(O)/C=C/c1cccc(S(=O)(=O)Nc2ccccc2)c1,patients with mild liver dysfunction,"intravenous, 400 mg/m^2 belinostat, single 30 min infusion, cycle 1 day -7, mean",6600
Cc1ccccc1-c1cc(N2CCNCC2)ncc1N(C)C(=O)C(C)(C)c1cc(C(F)(F)F)cc(C(F)(F)F)c1,healthy volunteers,"oral, dose not given",4940 to 6700
CC(C)(Sc1cc[n+]([O-])cc1-c1ccc(C#N)c2ccccc12)C(=O)OC1OC(C(=O)O)C(O)C(O)C1O (centres unmarked),,"oral, 15 mg, moderate renal impairment, fasted",601
Cn1cc(C(N)=O)c(NC2C3CC4CC2CC(OS(=O)(=O)O)(C4)C3)c2ccnc1-2 (centres unmarked),"Japanese adults, mild hepatic impairment","oral, 150 mg single dose, fasting, Child-Pugh A",888
O=C(O)c1cccc(S(=O)(=O)Nc2ccccc2)c1,patients with mild liver dysfunction,"intravenous, 400 mg/m^2 belinostat, single 30 min infusion, cycle 1 day -7, mean",15300
CN1CCN(c2cc(-c3ccccc3CO)c(N(C)C(=O)C(C)(C)c3cc(C(F)(F)F)cc(C(F)(F)F)c3)cn2)CC1,healthy volunteers,"oral, dose not given, netupitant-palonosetron, standard dissolution capsule",4050
Cn1cc(C(N)=O)c(NC2C3CC4CC2CC(O)(C4)C3)c2ccnc1-2 (centres unmarked),"Japanese adults, normal hepatic function","oral, 150 mg single dose, fasting",357
CONC(=O)/C=C/c1cccc(S(=O)(=O)Nc2ccccc2)c1,patients with severe liver dysfunction,"intravenous, 400 mg/m^2 belinostat, single 30 min infusion, cycle 1 day -7, mean",15500
NC(=O)c1cnc2[nH]ccc2c1NC1C2CC3CC1CC(OS(=O)(=O)O)(C3)C2 (centres unmarked),"Japanese adults, mild hepatic impairment","oral, 150 mg single dose, fasting, Child-Pugh A",4390
CC(C)[C@H](NC(=O)CNC(=O)[C@H](CCC(N)=O)NC(=O)[C@H](C)N)C(=O)O,"healthy volunteers, LPS endotoxaemia","intravenous, 15 mg/kg/h, 2 h infusion, geometric mean, added: LPS 2 ng/kg",3350
COc1cc(C)c(Cc2ccc(O)cc2)cc1[C@@H]1S[C@H](CO)[C@@H](O)[C@H](O)[C@H]1O,Japanese T2DM patients,"2.5 mg luseogliflozin, day 1, once daily",140 ± 31.3

# For quick reference, copied from above:
Structure (SMILES),system,setting,AUC(0-inf) [ng·h/mL]
O=C(O)c1cccc(S(=O)(=O)Nc2ccccc2)c1,patients with mild liver dysfunction,"intravenous, 400 mg/m^2 belinostat, single 30 min infusion, cycle 1 day -7, mean",15300
